Measured values collected from several papers.
Parts stem from different laboratories: compare values within a part only.

Study 1
Target: Fragile X messenger ribonucleoprotein 1, C-terminal low-complexity region (Fmr1, Mus musculus, UniProt P35922)
Technique: RNA Bind-n-Seq
Molecule type: RNA
Medium: in vitro
Concentration: 200 nM
Setting: whole 134-nt RNA, ends assumed
Together with: 150 mM KCl
Relative to: input library
Reading: higher = stronger binding
The log2 enrichment of `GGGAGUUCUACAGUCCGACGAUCAGUCCUGUGCUACACAUCGUAUGUACCGAAUCGGAAAAAAAGGUUUGGUUUUUUUGGAAAGUAUUAUGUUACGCCGUUCGGAUCUGCACUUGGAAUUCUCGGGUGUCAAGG` is reported as -1.26.
The log2 enrichment of `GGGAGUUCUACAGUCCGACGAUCGGGGACGGCAAAACAGAACAGAAAGGCGGAGAUAAAAAGAGGGGUGUUAAAAGACCACGAGAAGAUCAUGGCCGUGGAUAUUUUGAGUACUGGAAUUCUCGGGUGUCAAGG` is reported as 0.566.
With `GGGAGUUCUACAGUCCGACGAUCACCAUGCAGGUGGGCAUCUUUGGGAAGUGGGGCAAGGGGGGGAUAGGGAGGGGGGUAACACUUUGGGAACAGGUGGUCCCAGGAAAUUUCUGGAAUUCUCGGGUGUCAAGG` the log2 enrichment was 0.647.
`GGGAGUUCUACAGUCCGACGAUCUUACCGACACCGUAGAACAGAGCAAGAGGAGGAUGAAGAGCUAUUAACAGAAAGCUCCAAAGCAACCAAUGUUUGCACUCGAUUUGAAGAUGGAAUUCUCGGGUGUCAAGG` has a log2 enrichment of -0.368.
With `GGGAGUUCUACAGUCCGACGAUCAGUCCUGUGCUACACAUCGUAUGUACCGAAUCGGGAAAAAGGGAAAAAGGAAAAAGGGAAAGUAUUAUGUUACGCCGUUCGGAUCUGCACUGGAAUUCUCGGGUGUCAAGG` the log2 enrichment was -0.608.
`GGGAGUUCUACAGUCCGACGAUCGAGGAGCUGCUGCUGGAGCCCGAGCCGGAGCCCGAGCCCGAAGAGGAGCCGCCCCGGCCCCGCGCCCCCCCGGGAGCUCCGGGCCCUGGGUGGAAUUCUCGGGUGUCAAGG` gave a log2 enrichment of 0.101.
`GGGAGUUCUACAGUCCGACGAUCCAAGUCCUGUGCUACACAUCGUAUGUACCGAAUCGGGCCCGGGCCCGGGCCCGGGAAAGUAUUAUGUUACGCCGUUCGGAUCUGCACUUCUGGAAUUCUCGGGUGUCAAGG` has a log2 enrichment of -0.518.
`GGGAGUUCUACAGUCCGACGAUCGGAUUGGUAGCUUAUGUCGAUCUUGAUGAAAGAGCAAUUGAUGCUCUCAGGGAAUUUAAUGAAGAAGGAGCUCUGUCUGUACUACAGCAGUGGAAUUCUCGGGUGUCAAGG` has a log2 enrichment of -1.84.
The log2 enrichment of `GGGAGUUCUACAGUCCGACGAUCGCAGGAAGUAAAAACAAAUGGAAAUGCUUCGGAUAGUGGCAGGGGUGGGGGUUGCAAAGGAAAGGGUGGGAUGGGAGUGGGUAAAGAGUUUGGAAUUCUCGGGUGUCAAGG` is reported as 0.0253.
The log2 enrichment of `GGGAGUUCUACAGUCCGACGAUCUGGCCCUGGUGGCAUGCGGGGAGGAAGAGGUGGCCUCAUGGAUCGUGGUGGUGCCGGUGGAAUGUUCAGAGGUGGCCGUGGUGGAGACAGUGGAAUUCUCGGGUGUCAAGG` is reported as 0.118.
For `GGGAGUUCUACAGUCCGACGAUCUUAGAAGAAGAAGAUGGAGUGUGGGAGAAUGGACUUUCCUAUGAAUGCCGUACUCUGCUUUUCAAAGCAGUUCACAAUCUAUUGGAACGGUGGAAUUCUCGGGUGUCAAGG`, the log2 enrichment was -1.46.
`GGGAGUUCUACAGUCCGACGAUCCUCAAGUCCUGUGCUACACAUCGUAUGUACCGAAUCGGUUUUUGGAAAGGAGGAAAGUAUUAUGUUACGCCGUUCGGAUCUGCACUUCCAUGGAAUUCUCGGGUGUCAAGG` gave a log2 enrichment of -0.234.
`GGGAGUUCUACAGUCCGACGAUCCAAGUCCUGUGCUACACAUCGUAUGUACCGAAUCGGAAAAAAAGGUGGUUUUUGGAAAGUAUUAUGUUACGCCGUUCGGAUCUGCACUUCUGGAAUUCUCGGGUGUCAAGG` gave a log2 enrichment of -0.743.
`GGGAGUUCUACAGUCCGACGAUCAAGUCCUGUGCUACACAUCGUAUGUACCGAAUCGGGAAAGGGAAAAAAAGGGUGGGAAAGUAUUAUGUUACGCCGUUCGGAUCUGCACUUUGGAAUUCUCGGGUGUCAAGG` gave a log2 enrichment of 0.614.

Study 2
Target: RNA binding protein fox-1 homolog 2, RRM domain, GST-SBP tag (RBFOX2, Homo sapiens, UniProt O43251-10, residues 100-194)
Technique: RNA Bind-n-Seq
Molecule type: RNA
Medium: in vitro
Concentration: 365 nM
Setting: natural RNA segment, single round, ends assumed
Relative to: no-protein control
Reading: higher = stronger binding
Construct (chain): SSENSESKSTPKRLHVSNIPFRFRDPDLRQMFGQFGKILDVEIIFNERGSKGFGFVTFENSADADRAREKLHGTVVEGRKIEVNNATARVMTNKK
For `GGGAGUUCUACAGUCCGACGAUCGCUGAGGGGGUUGGCUGGGUCUGAGUGCCACCCCCCAGGCCACAGUGAUACCAUCCCAGUGCCAUGAGCCCACACUGCCCGCCCUCAGGCUCUCAGGUGAACGUGGCCGUUGGAAUUCUCGGGUGCCAA`, “RBNS enrichment (R)” read 0.5.
For `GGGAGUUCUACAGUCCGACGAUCCAGCGCCUGGUUGCCUUUCUCCUGUGUAUGUGUAAAUUCCUUAAUAAAUAUUGCAGGGAAAGACCCUUUUGCUCGGCUGUCACUGUGUUACUCUUGGAAGACAGUGAGACUGGAAUUCUCGGGUGCCAA`, “RBNS enrichment (R)” read 1.13.
`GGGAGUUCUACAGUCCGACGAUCCCAGUGACCUGCUAAAAAGUCAACUAGCUCAGAGUUUUGCUGGCCUUUAUGUGAGAAAUCCAAGAAAGUGUUCACUUUUUUGGGAUGCGAGACUCCUUGGUCUCAUUUGCUGGAAUUCUCGGGUGCCAA`: “RBNS enrichment (R)” 0.366.
Under “RBNS enrichment (R)”, `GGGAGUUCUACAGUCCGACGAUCCCCCCAGGUGUUGCCAUUUCUCUGCUUACCCUUCACCUUUGGUGCAGAGGUUUCUUGAAUAUCUGCCCCAGUAGUCAGAAGCAGGUUCUUGAUGUCAUGUACUUCCUGUGUGGAAUUCUCGGGUGCCAA` is recorded as 0.291.
Under “RBNS enrichment (R)”, `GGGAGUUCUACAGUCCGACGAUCGCAGGAAUGCUUUUCCAUCAGGGAAUAAAUACUUAGAAGCGCUUACAAGGUGCCAGGCACCUCCUUUCUGCAUGUGCCUGCCUUUCUAGUAGCAGACAGAUGGAAACAUUUGGAAUUCUCGGGUGCCAA` is recorded as 2.63.
`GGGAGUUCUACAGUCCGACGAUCGGGUGUGUCCCAAGGGCACUUGACUCCCGUUUGUGCUUGAGUAUCAGGAAUACCAAAGGGCCCAGGGUGCUCCUACUUGAAUUAUCUCACUGUCUGCUUUUCAAUCACUAUGGAAUUCUCGGGUGCCAA`: “RBNS enrichment (R)” 0.909.
`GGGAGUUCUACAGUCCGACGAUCGUAUUCAUCUGAUUUUUAAAUUAUGUAAAAUGUAAAUCAGCCAAGUAUGUCAUCCGUUAUAGUUUCCCCAUGCUUUCAGCGCAUGGCCAUGAGAUUUUUACAUGUGCAUAUGGAAUUCUCGGGUGCCAA`: “RBNS enrichment (R)” 0.376.
`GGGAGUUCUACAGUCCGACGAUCUUUUAAAUAAUAUUGAAUUUAAAAAAAUGUAUUGCAGUAGUGUGUCAGUACCUUAUUGUUAAAGUGAGUCAGAUAAAUCUUCAAUUCCUGGCUAUUUGGGCAAUUGAAUCUGGAAUUCUCGGGUGCCAA`: “RBNS enrichment (R)” 0.585.
`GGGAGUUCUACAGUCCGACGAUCAGCAUAGUGGAAGAAAAAAUUUCAGAAGCAAAGUAGCCAAGCACAUGUUAGGAUGGCCACGAAUGCUUGGUCAGAGUCCUUCCUUCCCUUGCUCAGCAGCGGACUUACUCUGGAAUUCUCGGGUGCCAA` — result for “RBNS enrichment (R)”: 0.996.
For `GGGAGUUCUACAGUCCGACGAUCGAAACUGAGCUGGGACUGGAAAGGACAGCCCUUGACCUGGGUUCUGGGUAUAAUUUGCACUUUUGAGACUGGUAGCUAACCAUCUUAUGAGUGCCAAUGUGUCAUUUAGUUGGAAUUCUCGGGUGCCAA`, “RBNS enrichment (R)” read 0.212.
`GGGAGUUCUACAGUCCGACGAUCGGAUGGAGACUGGAACCAUCCUACUGCUGCCAGCUGGAAGCUUUUCUCAGAGAGCCAAAGCUGAAUUCUCAGAGCUCCAAGGCCCUCCACAAGAUGCUAGAGGAAGCUCAUGGAAUUCUCGGGUGCCAA` — result for “RBNS enrichment (R)”: 0.238.
Under “RBNS enrichment (R)”, `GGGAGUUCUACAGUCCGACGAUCAACCUCCAGAGCAGUACUGUCACCUUUACUCACUGGGCAGAAAUAAAGACAUGUGCCAUAGACUUCCCAGAGUGGCUCUGAUUUGUUCAGGAGGUGGGGUGAAGACAGGCUGGAAUUCUCGGGUGCCAA` is recorded as 0.369.

Study 3
Target: Histone acetyltransferase KAT6A, both winged helices, GST fusion (KAT6A, Homo sapiens, UniProt Q92794, residues 1-181)
Technique: protein binding microarray
Molecule type: double-stranded DNA, one strand shown
Medium: in vitro
Concentration: not given
Setting: 8-mer, flanks averaged, mean of 2 arrays, mostly near background
Relative to: not given
Reading: higher = stronger binding
Residues (chain): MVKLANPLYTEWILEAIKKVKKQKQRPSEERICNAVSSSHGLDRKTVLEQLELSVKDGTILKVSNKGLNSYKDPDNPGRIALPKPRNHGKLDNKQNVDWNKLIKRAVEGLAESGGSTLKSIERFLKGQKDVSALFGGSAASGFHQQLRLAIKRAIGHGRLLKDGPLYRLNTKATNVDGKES
With `AGAACCAT` the E-score was -0.0854.
`AGGATAGG` gave an E-score of -0.243.
`ACCAACAC` has an E-score of -0.0698.
`CATGCCAC` gave an E-score of -0.0329.
`GTAATCCA` gave an E-score of -0.103.
The E-score of `CCTCAGCG` is reported as 0.197.
For `AAACCCTT`, the E-score was 0.0087.
`CGTGTTCC` has an E-score of 0.164.
`ACAAAGGC` gave an E-score of -0.00722.
The E-score of `GATTTAAA` is reported as -0.113.
`AAGCTAAG` gave an E-score of -0.164.
`ACCGATGA` gave an E-score of 0.0603.
`GGGTCGCA` has an E-score of 0.152.
For `TTCAGCAA`, the E-score was -0.226.
The E-score of `CCGATATC` is reported as 0.0643.
For `GTCGAACA`, the E-score was 0.03.
`AAAAATAT` has an E-score of -0.138.
With `CACTGACC` the E-score was -0.0615.
With `GGGTAGTA` the E-score was -0.0286.
`ACGTTTTG` has an E-score of -0.141.

Study 4
Target: Interferon regulatory factor 7, full length, phosphomimetic (IRF7, Homo sapiens, UniProt Q92985, residues 1-503, S101K/S471D/S472D/S475D/S476D/S477D/S483D/S484D/S487D)
Chain of UniProt Q92985 (whole entry, unmodified, looked up): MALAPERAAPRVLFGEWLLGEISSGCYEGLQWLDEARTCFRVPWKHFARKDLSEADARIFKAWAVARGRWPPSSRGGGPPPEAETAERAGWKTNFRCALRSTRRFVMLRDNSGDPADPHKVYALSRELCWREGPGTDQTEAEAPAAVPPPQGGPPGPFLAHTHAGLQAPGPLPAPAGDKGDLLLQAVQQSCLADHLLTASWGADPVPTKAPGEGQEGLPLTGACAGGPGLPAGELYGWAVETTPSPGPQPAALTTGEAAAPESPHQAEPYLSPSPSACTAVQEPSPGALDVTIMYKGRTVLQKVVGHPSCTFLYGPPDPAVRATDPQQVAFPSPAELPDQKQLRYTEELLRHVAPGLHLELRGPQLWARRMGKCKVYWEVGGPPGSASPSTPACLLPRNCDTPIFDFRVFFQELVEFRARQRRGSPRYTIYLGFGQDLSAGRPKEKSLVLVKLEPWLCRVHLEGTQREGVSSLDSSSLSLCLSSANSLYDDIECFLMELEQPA
Technique: protein-binding microarray
Molecule type: double-stranded DNA, one strand shown
Medium: in vitro
Concentration: 250 nM
Setting: 60-bp whole probe
Together with: salmon DNA 0.4 mg/ml
Relative to: random background probes
Reading: higher = stronger binding
All sequences stand within: GCCTAGCAC … GTCTTGATTCGCTTGACGCTGCTG
`GACGAACTGAGACTGGACACGTGCTAG` has a log fluorescence of -0.063 z-score.
For `TTAGATATGAGTATCGATTAGTGCTAG`, the log fluorescence was 0.786 z-score.
`TCTGTTTTTGCTTTCTTTATGTGCTAG` gave a log fluorescence of 1.88 z-score.
With `TTAGGTTCCCTTTTCTTTTAGTGCTAG` the log fluorescence was 3.89 z-score.
The log fluorescence of `GACGGTTTCGGTTTCGTGACGTGCTAG` is reported as 14.2 z-score.
The log fluorescence of `GTTTCTCTTTCCTTCTTGATGTGCTAG` is reported as 7.94 z-score.
`ACAAGTTTCTCCTTTCGGAAGTGCTAG` gave a log fluorescence of 3.86 z-score.
For `TTAGGACTGCTTATCCTCTAGTGCTAG`, the log fluorescence was 0.114 z-score.
With `TTAGGACTAGGACTGGGTTAGTGCTAG` the log fluorescence was 0.587 z-score.
With `TCACTCCTCTAGGTTCTCACTGTGCTA` the log fluorescence was 0.186 z-score.
`TTAGATTTCAGTTTCGATTAGTGCTAG` has a log fluorescence of 9.57 z-score.
The log fluorescence of `GACGGTTTCGACTATCGTGACGTGCTA` is reported as 5.32 z-score.
The log fluorescence of `GACGATCTCAGACTGGACACGTGCTAG` is reported as -0.306 z-score.
`TTAGGATTCGGGTTTCGGTTAGTGCTA` gave a log fluorescence of 8.96 z-score.
For `TCACCTCTCTCTATTCAACTGTGCTAG`, the log fluorescence was 0.861 z-score.
The log fluorescence of `TCATGTTTGAGTCTTCTACTGTGCTAG` is reported as -0.0986 z-score.
For `TTAGATTTTAGTTCCGATTAGTGCTAG`, the log fluorescence was 1.35 z-score.
`TTAGGTTGCCTTTTCCTTTAGTGCTAG` has a log fluorescence of 0.794 z-score.
`AGTGGCCCAGGGCATCCCCTGTGCTAG` has a log fluorescence of -0.44 z-score.
`TCAGTTTCTGATATGGTACTGTGCTAG` has a log fluorescence of 2.57 z-score.
For `TCAGGTTTCGGTTTCGGTTAGTGCTAG`, the log fluorescence was 15.2 z-score.
